# Assay results of several laboratories.
# Compare with care: the assays were run in different laboratories.
Compound,test,test system,setting,quantity,result
COc1ncnn2ccc(-c3cnc4nc(C)n(Cc5nnc([C@@H](C)F)o5)c4c3)c12,,human,"oral, dose not given, grade 5",patients with increased blood creatinine,0%
CNC(=O)c1cc(Oc2ccc(NC(=O)Nc3cc(C(C)(C)C)nn3-c3ccc4ncccc4c3)c(F)c2)ccn1,,"human, trial","oral, 150 mg twice daily, starting dose",patients with related serious Death AE,3%
CN[C@@H](C)C(=O)N[C@H]1CN(S(=O)(=O)c2cccc(S(=O)(=O)N3CC[C@H]4CC[C@@H](C(=O)NC(c5ccccc5)c5ccccc5)N4C(=O)[C@@H](NC(=O)[C@H](C)NC)C3)c2)CC[C@H]2CC[C@@H](C(=O)NC(c3ccccc3)c3ccccc3)N2C1=O,,"human, advanced solid tumours",0.6 mg,patients with treatment-related asthenia,0%
C[C@@H]1OC(=O)NN=C1c1ccc(-c2ccc(F)cc2)c(C(F)(F)F)c1,"phase I trial, measured: Anaemia all grades",human patients,5 mg once daily,patients with adverse event,0%
C=CC(=O)Nc1cc(Nc2nccc(Nc3cc(Cl)c(F)cc3C(C)(C)O)n2)c(OC)cc1N1CC[C@@H](N(C)C)C1,,human patients,"oral, 50 mg, treatment-emergent adverse events",patients with decreased appetite,16.7%
Cn1nc(NS(C)(=O)=O)c2c(Cl)ccc(-n3c([C@H](Cc4cc(F)cc(F)c4)NC(=O)Cn4nc(C(F)F)c5c4C(F)(F)[C@@H]4C[C@H]54)nc4nc(OCCC(F)(F)F)ccc4c3=O)c21,measured: total cholesterol grade 2 increase,human,"200 mg once daily, powder in bottle",patients with laboratory abnormality,17%
CN(C)C(=O)c1cc2cnc(Nc3ccc(N4CCNCC4)cn3)nc2n1C1CCCC1,measured: QT interval prolongation,"human, HR+/HER2− advanced breast cancer","oral, dose not given, grade 4, CTCAE v4.03",patients with adverse event,0%
C[C@]1(O)C[C@@](N)(c2ccc(-c3nc4n(c3-c3ccccc3)COc3ccncc3-4)cc2)C1,,"human, advanced or metastatic solid tumours","20 mg once daily, phase I dose escalation",patients with Stomatitis TEAE,0%
O=C1Nc2cc3[nH]nc(-c4ccncc4)c3cc2CN1Cc1ccccc1,CTCAE v4.03,"human, relapsed or refractory advanced solid tumours","intravenous, 4.8 mg/kg",patients with subretinal fluid,33%
Cc1cn([C@H]2O[C@@H](CO[P@@](=O)(N[C@@H](C)C(=O)OC(C)C)Oc3ccccc3)[C@H](O)[C@H]2F)c(=O)[nH]c1=O,measured: Nausea,human,50 mg,patients with TEAE,17%
Cn1cncc1-c1c(F)cncc1NC(=O)c1c(N)nn2cc(F)cnc12,,human patients,"oral, 220 mg once daily, 2 weeks on 1 week off",patients grade ≥3 Platelet count decrease,17%
